Measurements collected from several papers.
“And” joins repeats or separate records; there may be more than shown.
Target: Protein kinase C alpha type (PRKCA, Homo sapiens, UniProt P17252)

assay	conditions	how to read	measurement	value	Compound
enzyme activity, Dundee kinase panel	10 µM	–	remaining activity	110%	Cc1cccc(-c2ccc3nc(NC(=O)C4CCCCC4)nn3c2)c1
enzyme activity	100 nM, human enzyme, added: 10 µM ATP	baseline: untreated	remaining activity	113%	O=C=[N][Ru-4]123([n]4c5ccc(O)cc5c5c6c(c7cc(F)c[n+]1c7c54)C(=O)NC6=O)[S+]1CC[S+]2CC[S+]3CC1 (centres unmarked)
enzyme activity, Dundee kinase panel	10 µM	–	remaining activity	95%	Cc1ccc(C)c(-c2ccc3nc(NC(=O)C4CCCCC4)nn3c2)c1
cell-free assay	1 µM	–	inhibition	3.9%	C=CC(=O)N1Cc2nc(-c3cc(-c4cc(Cl)cnc4Cl)c(F)cc3F)n(-c3ccncn3)c2C1
enzyme activity, inhibitor	1 µM	–	inhibition	3%	CN1CC[C@@H](COc2cnc(C#N)cc2-c2ccn3nc(NC(=O)C4CC4)cc3c2)C1
enzyme activity, inhibitor	0.25 µM	–	remaining activity	92%	c1ccc2c(Nc3cc(C4CCC4)[nH]n3)nc(Nc3ccc4nc[nH]c4c3)nc2c1
kinase activity	0.1 µM, added: ATP at Km	–	inhibition	-4.5%	CCn1cc(C(=O)O)c(=O)c2c(N)c(F)c(NC3CCCCC3)cc21
enzyme activity, inhibitor	0.1 µM	–	inhibition	14%	CN1CCN(Cc2ccc(-c3ccc(CO[C@H]4CCC[C@@H]4NC(=O)c4cc(-c5cnn(C)c5)cnc4N)cc3)cc2)CC1
enzyme activity, inhibitor	10 µM	–	inhibition	6.04%	COc1cc(-n2cc3cc(F)cc(C(N)=O)c3n2)cc(Cl)c1C1CC(O)(CCO)Cc2ccccc21 (centres unmarked)
kinase activity, KinaseProfiler	0.03 µM, species human	baseline: control	remaining activity	82%	COc1ccc(NC(=O)Nc2ccc3c(c2)C(=O)N(C(C)CO)CC(C)C(CN(C)Cc2ccc4c(c2)OCO4)O3)cc1 (centres unmarked)
kinase activity, radiometric	10 µM	–	remaining activity	85%	O=C(O)CCC(=O)c1cccc(NS(=O)(=O)c2c[nH]c3ncccc23)c1
enzyme activity	10 µM	–	inhibition	-4%	Cc1cccc(O[C@H]2CCC[C@@H](C(C)CNCc3ccncc3)C2)c1 (relative stereo)
enzyme activity, inhibitor	10 µM	–	inhibition	7%	NC(=O)[C@@H](O)C[C@H]1CCc2sc3ncnc(O[C@H]4CC[C@H](N5CCOCC5)CC4)c3c21
kinase activity	0.1 µM	–	inhibition	35% and 33%	C=CC(=O)Nc1cccc(-c2cnc3[nH]cc(C(=O)NC(C)(C)C)c3n2)c1

Excerpt of the above:
assay	conditions	how to read	measurement	value	Compound
enzyme activity, inhibitor	10 µM	–	inhibition	6.04%	COc1cc(-n2cc3cc(F)cc(C(N)=O)c3n2)cc(Cl)c1C1CC(O)(CCO)Cc2ccccc21 (centres unmarked)
kinase activity, KinaseProfiler	0.03 µM, species human	baseline: control	remaining activity	82%	COc1ccc(NC(=O)Nc2ccc3c(c2)C(=O)N(C(C)CO)CC(C)C(CN(C)Cc2ccc4c(c2)OCO4)O3)cc1 (centres unmarked)
